Published values collected from several papers.
Lines come from different studies, so protocols differ. Numbers after ± are the reported error.
B1: colicin E1 fragment 1–81; sequence looked up; chain METAVAYYKDGVPYDDKGQVIITLLNGTPDGSGSGGGGGKGGSKSESSAAIHATAKWSTAQLKKTQAEQAARAKAAAEAQA

`Cc1ccccc1NC(=O)Nc1ccc(CC(=O)N[C@@H](CCCCNC(=O)/C=C/c2cccnc2)C(=O)N[C@@H](CCCC(=O)O)C(=O)NC2(C(=O)NCCOCCOCCOCCOCC(=O)N[C@@H](CCCCNC(=S)Nc3ccc(C[C@H]4CN(CC(=O)O)CCN(CC(=O)O)CCN4CC(=O)O)cc3)C(N)=O)CCCCC2)cc1` [fluorine-18 labelled] gave a tissue uptake of 11 ± 1.2 %ID/g (female C57BL/6 mice, B16-F10 tumour, liver; intravenous, 2 h).
`N=C(N)NCCC[C@@H]1NC(=O)[C@H](CCCCNC(=O)CNC(=O)CNC(=O)CNC(=O)CC[C@H](NC(=O)CCOCCOCCOCCOCCNC(=O)c2ccc(NN)nc2)C(=O)NCC(=O)NCC(=O)NCC(=O)NCCCC[C@@H]2NC(=O)[C@@H](Cc3ccccc3)NC(=O)[C@H](CC(=O)O)NC(=O)CNC(=O)[C@H](CCCNC(=N)N)NC2=O)NC(=O)[C@@H](Cc2ccccc2)NC(=O)[C@H](CC(=O)O)NC(=O)CNC1=O` [technetium-99m labelled] gave a tissue uptake of 9.27 ± 1.15 %ID/g (γ-counting; female athymic nude mice, U-87 MG xenograft, intestine; intravenous, 0.5 h).
`melittin` — result for “free energy of partitioning”: -7.34 kcal/mol (CD titration; POPC 75% POPG 25% vesicles; pH 7.0, 60 °C).
`B1 (colicin E1 fragment 1–81)` gave a helical content of 14 ± 2% (far-UV CD; peptide, 50 mM sodium phosphate).
With `COc1cccc2c1C(=O)c1c(O)c3c(c(O)c1C2=O)C[C@@](O)(C(=O)CO)C[C@@H]3O[C@H]1C[C@H](NC(=O)[C@H](CC(C)C)NC(=O)[C@H](C)NC(=O)[C@H](CC(C)C)NC(=O)CCNC(=O)CCC(=O)O)[C@H](O)[C@H](C)O1` the AUC was 771 µM·h (mouse, E0771 tumour-bearing, kidney; intravenous, 92 µmol/kg).
`CC(=O)N(O)CCCCCNC(=O)CCC(=O)N(O)CCCCCNC(=O)CCC(=O)N(O)CCCCCNC(=S)Nc1ccc(NC(=S)NCCOCCOCCOCCOCCC(=O)N[C@@H](CCC(=O)NCCOCCOCCOCCOCCC(=O)NCCCC[C@@H]2NC(=O)[C@@H](Cc3ccccc3)NC(=O)[C@H](CC(=O)O)NC(=O)CNC(=O)[C@H](CCCNC(=N)N)NC2=O)C(=O)NCCOCCOCCOCCOCCC(=O)NCCCC[C@@H]2NC(=O)[C@@H](Cc3ccccc3)NC(=O)[C@H](CC(=O)O)NC(=O)CNC(=O)[C@H](CCCNC(=N)N)NC2=O)cc1` [zirconium-89 labelled] has a tissue uptake of roughly 0.67 %ID/g (athymic nude mice female tumour-bearing, blood; intravenous, 100 µCi, 4 h).
`N=C(N)NCCC[C@@H]1NC(=O)[C@H](CCCCNC(=O)CCOCCOCCOCCOCCNC(=O)CC[C@H](NC(=O)CCOCCOCCOCCOCCNC(=O)c2ccc(NN)nc2)C(=O)NCCOCCOCCOCCOCCC(=O)NCCCC[C@@H]2NC(=O)[C@@H](Cc3ccccc3)NC(=O)[C@H](CC(=O)O)NC(=O)CNC(=O)[C@H](CCCNC(=N)N)NC2=O)NC(=O)[C@@H](Cc2ccccc2)NC(=O)[C@H](CC(=O)O)NC(=O)CNC1=O` [technetium-99m labelled] gave a tumour uptake of 6 to 12.5 %ID/g (athymic nude mouse, U-87 MG xenograft; 120 min).
`CSCC[C@H](NC(=O)[C@H](CC(C)C)NC(=O)[C@H](Cc1c[nH]cn1)NC(=O)CNC(=O)[C@@H](NC(=O)[C@H](C)NC(=O)[C@H](Cc1c[nH]c2ccccc12)NC(=O)[C@H](CCC(N)=O)NC(=O)CCC(=O)NCCOCCOCCNC(=O)CN1CCN(CC(=O)O)CCN(CC(=O)O)CCN(CC(=O)O)CC1)C(C)C)C(N)=O` gave an excreted dose of 80.67 ± 0.74% (ICR SCID mouse (PC-3 tumour), urine and bladder contents; intravenous, 185 kBq, 1 h).
`N=C(N)NCCC[C@@H]1NC(=O)[C@H](CCCCNC(=O)[C@H](CC(=O)O)NC(=O)[C@H](CC(=O)O)NC(=O)[C@H](CC(=O)O)NC(=O)CC[C@H](NC(=O)CCOCCOCCOCCOCCNC(=O)c2ccc(NN)nc2)C(=O)N[C@@H](CC(=O)O)C(=O)N[C@@H](CC(=O)O)C(=O)N[C@@H](CC(=O)O)C(=O)NCCCC[C@@H]2NC(=O)[C@@H](Cc3ccccc3)NC(=O)[C@H](CC(=O)O)NC(=O)CNC(=O)[C@H](CCCNC(=N)N)NC2=O)NC(=O)[C@@H](Cc2ccccc2)NC(=O)[C@H](CC(=O)O)NC(=O)CNC1=O` [technetium-99m labelled] has a tissue uptake of 0.49 ± 0.08 %ID/g (γ-counting; female athymic nude mice, U-87 MG xenograft, blood; intravenous, 1 h).
With `CCN1C(=CC=CC=CC2=[N+](CCCCCC(=O)NCCCC[C@H](NC(=O)CN3CCN(CC(=O)O)CCN(CC(=O)O)CCN(CC(=O)O)CC3)C(=O)NCC(=O)NCC(=O)N[C@@H](Cc3ccc(O)cc3)C(=O)NCC(=O)N[C@H]3CSSC[C@@H]4NC(=O)CNC(=O)[C@H](C)NC(=O)[C@H](CC(C)C)NC(=O)[C@@H]5CSSC[C@@H](C(=O)NCC(N)=O)NC(=O)[C@H](Cc6ccccc6)NC(=O)CNC(=O)[C@H](CC(N)=O)NC(=O)[C@@H]6CCCN6C(=O)CNC(=O)[C@H](CSSC[C@H](NC(=O)[C@H](CO)NC(=O)[C@H]([C@@H](C)O)NC(=O)[C@@H]6CCCN6C(=O)[C@H](C)NC(=O)[C@H](Cc6c[nH]c7ccccc67)NC(=O)[C@H](CC(=O)O)NC(=O)CNC(=O)[C@H](CCCNC(=N)N)NC(=O)CNC(=O)[C@H](CCC(N)=O)NC(=O)[C@@H]6CCCN6C3=O)C(=O)N[C@@H](CO)C(=O)N[C@@H](CCC(N)=O)C(=O)N[C@@H](CC(=O)O)C(=O)N[C@@H](CO)C(=O)N[C@@H](CC(=O)O)C(=O)N5)NC(=O)[C@H](C(C)C)NC4=O)c3ccc4c(S(=O)(=O)[O-])cc(S(=O)(=O)O)cc4c3C2(C)C)C(C)(C)c2c1ccc1c(S(=O)(=O)O)cc(S(=O)(=O)O)cc21` (single isomer, unassigned) [copper-64 labelled] the tumour uptake was 4.52 ± 0.31 %ID/g (microPET; female athymic nude mouse, U-87 MG xenograft, tumour; intravenous, 100 µCi, 4 h).
`COc1cccc2c1C(=O)c1c(O)c3c(c(O)c1C2=O)C[C@@](O)(C(=O)CO)C[C@@H]3O[C@H]1C[C@H](NC(=O)[C@@H]2CCCN2C(=O)CNC(=O)[C@H](CC(C)C)NC(=O)[C@H](C)NC(=O)CP(=O)(O)O)[C@H](O)[C@H](C)O1` has an AUC of 152 µM·h (mouse, E0771 tumour-bearing, liver; intravenous, 92 µmol/kg).
`COc1ccc2c(c1OCc1ccccc1)C[C@@H](C(=O)OCC(=O)NCCCC[C@H](NC(=O)CNC(=O)[C@H](CCCNC(=N)N)NC(=O)[C@H](CO)NC(=O)CNC(=O)CNC(=O)[C@H](Cc1ccc(O)cc1)NC(=O)[C@H](Cc1ccccc1)NC(=O)[C@H](Cc1ccccc1)NC(=O)[C@@H](NC(=O)COC(=O)[C@@H]1Cc3c(ccc(OC)c3OCc3ccccc3)CN1C(=O)C(c1ccccc1)c1ccccc1)[C@@H](C)O)C(=O)N[C@@H](CCCNC(=N)N)C(=O)N[C@@H](CC(N)=O)C(=O)N[C@@H](CC(N)=O)C(=O)N[C@@H](Cc1ccccc1)C(=O)N[C@@H](CCCCNC(=O)COC(=O)[C@@H]1Cc3c(ccc(OC)c3OCc3ccccc3)CN1C(=O)C(c1ccccc1)c1ccccc1)C(=O)N[C@H](C(=O)N[C@@H](CCC(=O)O)C(=O)N[C@@H](CCC(=O)O)C(=O)N[C@@H](Cc1ccc(O)cc1)C(=O)O)[C@@H](C)O)N(C(=O)C(c1ccccc1)c1ccccc1)C2` has a remaining compound of roughly 100% (HPLC; human plasma; 50 µM, 2 h, pH 7.4, 37 °C).

A few entries again:
`Cc1ccccc1NC(=O)Nc1ccc(CC(=O)N[C@@H](CCCCNC(=O)/C=C/c2cccnc2)C(=O)N[C@@H](CCCC(=O)O)C(=O)NC2(C(=O)NCCOCCOCCOCCOCC(=O)N[C@@H](CCCCNC(=S)Nc3ccc(C[C@H]4CN(CC(=O)O)CCN(CC(=O)O)CCN4CC(=O)O)cc3)C(N)=O)CCCCC2)cc1` [fluorine-18 labelled] gave a tissue uptake of 11 ± 1.2 %ID/g (female C57BL/6 mice, B16-F10 tumour, liver; intravenous, 2 h).
